# Published values gathered from unrelated publications.
# Every numbered part comes from another study and shows a few of its results, in no order. “And” joins repeats or separate records; there may be more than shown. Positions count from the first letter of the parent shown.
# Chain of UniProt P93022 (whole entry, looked up): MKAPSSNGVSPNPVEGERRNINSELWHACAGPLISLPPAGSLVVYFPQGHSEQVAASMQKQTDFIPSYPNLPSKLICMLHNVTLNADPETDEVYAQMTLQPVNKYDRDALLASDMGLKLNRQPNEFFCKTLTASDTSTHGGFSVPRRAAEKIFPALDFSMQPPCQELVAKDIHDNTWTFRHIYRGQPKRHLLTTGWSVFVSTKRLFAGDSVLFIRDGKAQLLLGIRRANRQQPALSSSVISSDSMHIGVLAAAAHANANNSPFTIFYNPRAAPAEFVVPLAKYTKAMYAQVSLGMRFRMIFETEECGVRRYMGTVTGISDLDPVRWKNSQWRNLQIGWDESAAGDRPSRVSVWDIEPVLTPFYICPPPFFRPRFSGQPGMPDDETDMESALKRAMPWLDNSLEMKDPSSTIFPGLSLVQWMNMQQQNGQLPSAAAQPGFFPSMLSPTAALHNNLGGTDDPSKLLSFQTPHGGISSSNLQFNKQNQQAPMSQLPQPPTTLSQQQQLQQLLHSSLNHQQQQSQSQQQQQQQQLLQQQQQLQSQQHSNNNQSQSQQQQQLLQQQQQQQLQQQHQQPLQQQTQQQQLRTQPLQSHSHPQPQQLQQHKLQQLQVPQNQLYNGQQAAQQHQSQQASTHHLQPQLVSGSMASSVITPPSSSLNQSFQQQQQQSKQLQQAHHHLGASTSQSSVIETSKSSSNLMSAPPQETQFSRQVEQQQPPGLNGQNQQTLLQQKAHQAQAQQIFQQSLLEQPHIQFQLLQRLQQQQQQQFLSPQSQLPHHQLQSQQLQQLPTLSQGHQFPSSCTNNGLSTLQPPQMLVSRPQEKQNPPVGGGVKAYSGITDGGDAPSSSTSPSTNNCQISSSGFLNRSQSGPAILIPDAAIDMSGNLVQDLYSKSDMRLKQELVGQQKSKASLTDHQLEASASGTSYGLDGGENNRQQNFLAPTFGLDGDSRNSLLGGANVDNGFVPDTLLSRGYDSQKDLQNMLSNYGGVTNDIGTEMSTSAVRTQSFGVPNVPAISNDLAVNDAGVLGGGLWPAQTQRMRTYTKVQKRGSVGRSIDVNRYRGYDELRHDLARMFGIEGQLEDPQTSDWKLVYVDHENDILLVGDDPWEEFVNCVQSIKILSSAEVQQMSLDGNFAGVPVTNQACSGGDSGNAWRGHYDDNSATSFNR
# Chain of UniProt Q9XED8 (whole entry, looked up): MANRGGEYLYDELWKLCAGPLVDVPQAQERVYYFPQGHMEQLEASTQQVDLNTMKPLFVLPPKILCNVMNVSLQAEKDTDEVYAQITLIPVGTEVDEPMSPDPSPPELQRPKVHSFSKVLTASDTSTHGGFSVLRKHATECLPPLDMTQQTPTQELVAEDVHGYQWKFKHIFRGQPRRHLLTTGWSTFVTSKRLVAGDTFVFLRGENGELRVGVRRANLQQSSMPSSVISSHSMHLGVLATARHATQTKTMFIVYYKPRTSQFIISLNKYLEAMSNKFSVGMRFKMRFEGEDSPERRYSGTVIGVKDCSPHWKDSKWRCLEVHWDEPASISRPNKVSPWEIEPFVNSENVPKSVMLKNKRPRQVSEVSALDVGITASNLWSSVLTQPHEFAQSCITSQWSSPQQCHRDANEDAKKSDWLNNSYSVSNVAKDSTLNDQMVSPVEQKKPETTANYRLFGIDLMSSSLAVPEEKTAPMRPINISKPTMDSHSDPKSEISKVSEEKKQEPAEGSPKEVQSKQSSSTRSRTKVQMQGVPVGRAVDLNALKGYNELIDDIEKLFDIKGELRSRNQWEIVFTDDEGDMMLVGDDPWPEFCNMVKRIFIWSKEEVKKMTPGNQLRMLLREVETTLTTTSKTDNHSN
# Chain of UniProt Q8LAL2 (whole entry, looked up): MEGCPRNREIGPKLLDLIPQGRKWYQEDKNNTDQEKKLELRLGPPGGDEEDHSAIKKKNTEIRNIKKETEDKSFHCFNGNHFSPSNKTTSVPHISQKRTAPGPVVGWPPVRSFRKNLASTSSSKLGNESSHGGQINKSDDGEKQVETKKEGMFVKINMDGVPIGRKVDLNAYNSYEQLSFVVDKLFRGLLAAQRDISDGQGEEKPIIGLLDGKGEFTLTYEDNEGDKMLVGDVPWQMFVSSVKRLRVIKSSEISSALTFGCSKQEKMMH
# Chain of UniProt Q9ZTX8 (whole entry, looked up): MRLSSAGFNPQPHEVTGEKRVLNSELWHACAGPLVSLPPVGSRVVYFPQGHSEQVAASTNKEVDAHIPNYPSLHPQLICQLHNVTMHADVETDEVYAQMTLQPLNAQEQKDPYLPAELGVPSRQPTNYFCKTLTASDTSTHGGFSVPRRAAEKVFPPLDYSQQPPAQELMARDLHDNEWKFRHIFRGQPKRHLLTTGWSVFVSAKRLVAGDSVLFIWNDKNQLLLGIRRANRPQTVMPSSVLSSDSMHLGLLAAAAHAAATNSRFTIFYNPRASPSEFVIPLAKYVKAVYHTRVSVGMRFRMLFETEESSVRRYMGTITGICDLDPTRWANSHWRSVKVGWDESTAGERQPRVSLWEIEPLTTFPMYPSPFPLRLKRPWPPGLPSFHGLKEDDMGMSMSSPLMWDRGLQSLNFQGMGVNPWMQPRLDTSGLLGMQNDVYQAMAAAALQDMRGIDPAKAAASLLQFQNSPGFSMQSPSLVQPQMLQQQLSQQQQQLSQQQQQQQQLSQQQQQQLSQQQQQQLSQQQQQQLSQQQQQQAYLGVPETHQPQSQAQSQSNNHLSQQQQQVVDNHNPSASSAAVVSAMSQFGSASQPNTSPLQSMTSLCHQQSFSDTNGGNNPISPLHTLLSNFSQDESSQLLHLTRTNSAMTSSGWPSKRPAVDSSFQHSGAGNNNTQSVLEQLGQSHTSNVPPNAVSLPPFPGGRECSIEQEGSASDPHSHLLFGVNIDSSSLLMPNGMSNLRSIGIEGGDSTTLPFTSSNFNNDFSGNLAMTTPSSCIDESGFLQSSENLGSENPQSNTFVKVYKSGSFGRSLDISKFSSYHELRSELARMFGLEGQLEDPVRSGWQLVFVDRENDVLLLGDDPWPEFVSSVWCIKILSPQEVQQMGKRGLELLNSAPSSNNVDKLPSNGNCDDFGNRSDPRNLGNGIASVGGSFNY
# Chain of UniProt O24409 (whole entry, looked up): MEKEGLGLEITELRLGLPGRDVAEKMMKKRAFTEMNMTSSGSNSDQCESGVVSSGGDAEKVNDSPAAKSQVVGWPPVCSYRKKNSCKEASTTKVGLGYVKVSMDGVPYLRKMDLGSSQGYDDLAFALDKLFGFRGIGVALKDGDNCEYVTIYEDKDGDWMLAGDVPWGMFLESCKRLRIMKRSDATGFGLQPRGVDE
# Chain of UniProt Q8RYC6 (whole entry, looked up): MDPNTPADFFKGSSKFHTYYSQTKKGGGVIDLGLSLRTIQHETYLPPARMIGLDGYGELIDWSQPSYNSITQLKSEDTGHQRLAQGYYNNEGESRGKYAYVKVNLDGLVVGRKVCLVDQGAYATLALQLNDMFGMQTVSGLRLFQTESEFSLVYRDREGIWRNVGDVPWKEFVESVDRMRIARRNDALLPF
# Chain of UniProt P93024 (whole entry, looked up): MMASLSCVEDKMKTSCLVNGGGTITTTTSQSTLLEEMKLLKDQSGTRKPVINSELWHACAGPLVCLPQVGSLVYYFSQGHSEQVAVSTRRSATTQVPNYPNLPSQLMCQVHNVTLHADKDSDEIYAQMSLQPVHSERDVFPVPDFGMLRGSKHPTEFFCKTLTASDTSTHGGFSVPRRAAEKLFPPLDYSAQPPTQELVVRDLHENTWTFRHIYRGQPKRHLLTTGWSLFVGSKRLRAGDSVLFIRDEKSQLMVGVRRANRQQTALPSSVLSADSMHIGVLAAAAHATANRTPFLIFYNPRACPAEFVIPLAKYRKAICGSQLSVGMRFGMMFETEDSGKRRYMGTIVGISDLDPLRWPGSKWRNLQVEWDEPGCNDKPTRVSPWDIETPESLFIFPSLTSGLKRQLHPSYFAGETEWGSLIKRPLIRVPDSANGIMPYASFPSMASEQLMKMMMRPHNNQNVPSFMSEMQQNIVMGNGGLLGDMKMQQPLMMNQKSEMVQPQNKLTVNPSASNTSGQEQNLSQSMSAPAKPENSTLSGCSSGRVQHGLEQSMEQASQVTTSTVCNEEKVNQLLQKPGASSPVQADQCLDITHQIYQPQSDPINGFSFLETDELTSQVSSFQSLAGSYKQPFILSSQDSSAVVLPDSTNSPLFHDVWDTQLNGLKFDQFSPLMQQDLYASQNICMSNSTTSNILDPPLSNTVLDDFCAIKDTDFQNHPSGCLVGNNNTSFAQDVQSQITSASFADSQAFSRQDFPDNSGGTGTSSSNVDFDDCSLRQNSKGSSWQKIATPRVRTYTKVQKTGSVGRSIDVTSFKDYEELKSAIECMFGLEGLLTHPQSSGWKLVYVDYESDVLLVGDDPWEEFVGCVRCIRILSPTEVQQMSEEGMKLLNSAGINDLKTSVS
# Chain of UniProt P23975 (whole entry, looked up): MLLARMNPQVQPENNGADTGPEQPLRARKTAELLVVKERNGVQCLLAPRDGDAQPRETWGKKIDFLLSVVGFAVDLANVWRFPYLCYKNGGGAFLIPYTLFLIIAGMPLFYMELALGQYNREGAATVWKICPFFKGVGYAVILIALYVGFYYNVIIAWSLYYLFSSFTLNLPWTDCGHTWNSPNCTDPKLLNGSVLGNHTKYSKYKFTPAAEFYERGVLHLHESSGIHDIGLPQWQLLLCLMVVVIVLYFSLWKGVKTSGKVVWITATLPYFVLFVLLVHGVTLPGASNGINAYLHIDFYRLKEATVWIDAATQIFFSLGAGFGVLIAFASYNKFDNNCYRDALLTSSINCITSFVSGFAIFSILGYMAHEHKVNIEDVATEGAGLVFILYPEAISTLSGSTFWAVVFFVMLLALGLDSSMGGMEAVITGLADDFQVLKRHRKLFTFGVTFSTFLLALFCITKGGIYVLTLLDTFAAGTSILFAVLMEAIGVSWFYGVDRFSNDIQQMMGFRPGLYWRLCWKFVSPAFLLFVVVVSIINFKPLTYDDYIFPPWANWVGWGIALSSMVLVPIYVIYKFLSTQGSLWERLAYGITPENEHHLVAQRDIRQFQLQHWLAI

# Sample 1
# Sequence: B1 (IAA16)
# Method: two-hybrid
# Relative to: out of 4 tests
# Direction: higher = firmer interaction
# B1: IAA16 (Arabidopsis thaliana, UniProt O24407); chain MINFEATELRLGLPGGNHGGEMAGKNNGKRGFSETVDLKLNLSSTAMDSVSKVDLENMKEKVVKPPAKAQVVGWPPVRSFRKNVMSGQKPTTGDATEGNDKTSGSSGATSSASACATVAYVKVSMDGAPYLRKIDLKLYKTYQDLSNALSKMFSSFTIGNYGPQGMKDFMNESKLIDLLNGSDYVPTYEDKDGDWMLVGDVPWEMFVDSCKRIRIMKGSEAIGLAPRALEKCKNRS
partner,setting,positive tests
"ARF6 790-935 (Arabidopsis thaliana, UniProt Q9ZTX8)",,3
"IAA32 (Arabidopsis thaliana, UniProt Q8RYC6)",,2
"IAA26 (Arabidopsis thaliana, UniProt Q8LAL2)",,2
"ARF5 788-902 (Arabidopsis thaliana, UniProt P93024)",,4
"IAA19 (Arabidopsis thaliana, UniProt O24409)",,4
"ARF9 519-638 (Arabidopsis thaliana, UniProt Q9XED8)",weak activation fusion,2
"ARF7 1030-1164 (Arabidopsis thaliana, UniProt P93022)",,3

# Sample 2
# Target: NFIL3, bZIP domain (human)
# Method: DHFR protein complementation
# Matrix: yeast
# Setting: single substitutions, most at no-binding floor
# Relative to: wild-type JUN-FOS pair
# Direction: higher = stronger binding
# Starting sequence: JUN, bZIP domain (human); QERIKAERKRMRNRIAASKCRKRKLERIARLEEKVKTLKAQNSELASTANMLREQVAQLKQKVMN; partner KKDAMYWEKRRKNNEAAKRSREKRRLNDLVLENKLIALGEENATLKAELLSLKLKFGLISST
Change,binding fitness [natural log]
Q55A,-1.48
M51C,-1.49
V56S,-1.48
Q55W,-1.52
E32R,-1.42
M51V,-1.34
A29L,-1.43
R30T,-1.23

# Sample 3
# Target: HLA class I histocompatibility antigen, A alpha chain, allele A*25:01 (Homo sapiens, UniProt P04439)
# Read-out: peptide-MHC binding
# Molecule type: peptide
# Concentration: concentration not given
Sequence,binding
DEMVCKWLL,inactive
SVANIDRIK,inactive
MTRGLLGSY,active

# Single results of other studies
# DRD5: D(1B) dopamine receptor (DRD5, Homo sapiens, UniProt P21918)
SMILES,tested on,read-out,method,concentration,time,endpoint,result
Cc1c(NC(=O)c2cc(C(N)=O)nc3cc(F)ccc23)c(C(F)(F)F)nn1Cc1ccc(C(C)(C)C)cc1,DRD5,binding,radioligand binding,10 µM,,inhibition,2.96%
CC(C)(C)c1cnc(CSc2cnc(NC(=O)C3CCN(CCCCCSc4cccc5c4CN(C4CCC(=O)NC4=O)C5=O)CC3)s2)o1 (stereo not shown),HEK293T,,trypan blue exclusion,100 nM,24 h,viability,93% and 85.3% and 93.1%
CCc1ccccc1C(=O)Nc1n[nH]c2c(C)c(F)c(C3C(C#N)=C(C)N(C)C(C)=C3C#N)cc12,"SLC6A2 (Homo sapiens, UniProt P23975)",ligand displacement,,10 µM,,inhibition,2.8%
Cc1c[nH]c2nccc(Oc3c(F)cc(Nc4cc(Cl)nc(N)n4)cc3F)c12,DRD5,binding,radioligand binding,10 µM,,inhibition,21.9%

# For quick reference, copied from above (sample 1):
partner,setting,positive tests
"IAA32 (Arabidopsis thaliana, UniProt Q8RYC6)",,2
"ARF7 1030-1164 (Arabidopsis thaliana, UniProt P93022)",,3
